Experimental data of several laboratories.
Each line is one published result; not all experiments were run side by side. “And” joins repeats or separate records; there may be more than shown.

[BH3-][P+]1(c2ccccc2)CCCCC1
reduction of cell number (SW-620; trypan blue; IC50, 72 h; reference: untreated): 56 to 60%

O=C(C[Se]C(=O)c1ccccc1Nc1cccc(C(F)(F)F)c1)Nc1cccc(C(F)(F)F)c1
mean growth percent (NCI60 breast subpanel; cell growth; 10 µM, 48 h, one-dose): -84.8%

CSCC[C@H](N)C(=O)N[C@@H](C)C(=O)N[C@@H](CCCNC(=N)N)C(=O)N[C@@H](CCCNC(=N)N)C(=O)N[C@@H](CC(=O)O)C(=O)N[C@@H](CCCCN)C(=O)N[C@H](C(=O)N[C@@H](CC(=O)O)C(=O)N[C@@H](Cc1ccccc1)C(=O)N[C@@H](C)C(=O)N[C@@H](CCCNC(=N)N)C(=O)N[C@@H](CCCNC(=N)N)C(=O)N[C@@H](CCCNC(=N)N)C(=O)N[C@@H](CCCNC(=N)N)C(=O)NCCCCCC(=O)NCCCCC(NC(=O)CCCCCNC(=O)[C@H](CCCNC(=N)N)NC(=O)[C@H](CCCNC(=N)N)NC(=O)[C@H](CCCNC(=N)N)NC(=O)[C@H](CCCNC(=N)N)NC(=O)[C@H](C)NC(=O)[C@H](Cc1ccccc1)NC(=O)[C@H](CC(=O)O)NC(=O)[C@@H](NC(=O)[C@H](CCCCN)NC(=O)[C@H](CC(=O)O)NC(=O)[C@H](CCCNC(=N)N)NC(=O)[C@H](CCCNC(=N)N)NC(=O)[C@H](C)NC(=O)[C@@H](N)CCSC)[C@@H](C)O)C(=O)NCCCCC(NC(=O)C(CCCCNC(=O)CCCCCNC(=O)[C@H](CCCNC(=N)N)NC(=O)[C@H](CCCNC(=N)N)NC(=O)[C@H](CCCNC(=N)N)NC(=O)[C@H](CCCNC(=N)N)NC(=O)[C@H](C)NC(=O)[C@H](Cc1ccccc1)NC(=O)[C@H](CC(=O)O)NC(=O)[C@@H](NC(=O)[C@H](CCCCN)NC(=O)[C@H](CC(=O)O)NC(=O)[C@H](CCCNC(=N)N)NC(=O)[C@H](CCCNC(=N)N)NC(=O)[C@H](C)NC(=O)[C@@H](N)CCSC)[C@@H](C)O)NC(=O)CCCCCNC(=O)[C@H](CCCNC(=N)N)NC(=O)[C@H](CCCNC(=N)N)NC(=O)[C@H](CCCNC(=N)N)NC(=O)[C@H](CCCNC(=N)N)NC(=O)[C@H](C)NC(=O)[C@H](Cc1ccccc1)NC(=O)[C@H](CC(=O)O)NC(=O)[C@@H](NC(=O)[C@H](CCCCN)NC(=O)[C@H](CC(=O)O)NC(=O)[C@H](CCCNC(=N)N)NC(=O)[C@H](CCCNC(=N)N)NC(=O)[C@H](C)NC(=O)[C@@H](N)CCSC)[C@@H](C)O)C(N)=O)[C@@H](C)O (stereo partly drawn)
osteoclast formation (mouse C57BL/6 BMMs; 0.1 µM, 3 days, with: RANKL; reference: untreated control): 63%

CN1CCCNC(=O)c2cccc(c2)C(=O)NCCCN(C)CCCNc2cccc3c2C(=O)c2cccc(c2C3=O)NCCC1
log2 fold change (SAS; RNA-Seq, item: SMUG1 mRNA; 1 µM, 6 h; reference: untreated cells): 0.535

COc1cc(C(=O)N2CC[C@@H](O)[C@@H](N)C2)cc2nc(-c3cc4cccnc4n3CC3CC3)n(C)c12
inhibition (human neutrophils; protein citrullination, inhibitor, flow cytometry, item: citrullinated histone H3; 10 µM, with: ionomycin): 84.8% and 86.7% and 75.5% and 87.7%

CCc1cc(N2C(=S)N(c3ccc(C#N)c(C(F)(F)F)c3)C(=O)C2(C)C)ccc1OCCN1CCN(CC(=O)Nc2cccc(NC3CCC(=O)NC3=O)c2)[C@H](C)C1 (stereo partly drawn)
GI50 (VCaP; androgen-stimulated proliferation; 168 h): 11 nM

COC1CN([C@H]2CC[C@H]([C@@]3(C)Oc4c(Cl)cc(C(=O)NCc5c(SC)cc(C)[nH]c5=O)c(C)c4O3)CC2)C1
log2 fold change (RNA-seq, item: CREB3L1; human, whole blood; dose not given, 24 h; reference: pretreatment baseline): 7.38

Cn1ncc2cc(-c3cncc(Cl)c3N3CCC4(CCNC4=O)CC3)ccc21
fold change in expression (LS174T; microarray, item: ADA; concentration not given, 4 h; reference: untreated cells): 1.04

CCN(CC)CC(=O)Nc1cccc(-n2cc(-c3ccc4ccc(-c5cn(-c6cccc(NC(=O)CN(CC)CC)c6)nn5)cc4c3)nn2)c1
fold regulation (RCC4; PCR angiogenesis array, item: VEGFA; 5 x IC50, 2 h, normoxia; reference: untreated): -1.01 fold

COc1ccccc1-c1ccncc1C(=O)Nc1nnc(OCc2ccc(Cl)cc2)s1
colony survival (MDA-MB-231; 12 µM, single replicate; reference: untreated): 67.6% and 74.1%

COc1ccc(NC(=O)c2c(Nc3ccccc3)sc(C(=O)N/N=C/c3ccc(OC)c(OC)c3)c2NC(C)=O)cc1
viability (HCT-116; cell growth or viability, SRB; 10 µM, 48 h): 39.4%

CC(C)(C)c1cc(-c2ccc3cccnc3n2)nc(-c2ccc3cccnc3n2)c1.[Cl-].[Cl-].[Ru+2].c1ccc2cc3nc4c5cccnc5c5ncccc5c4nc3cc2c1
phototoxicity index (B16-F10; resazurin; with: light 633 nm, 100 J/cm2; reference: dark EC50 over light EC50): 4

Cc1nc(Nc2ncc(C(=O)Nc3c(C)cccc3Cl)s2)cc(N2CCN(C(=O)CN)CC2)n1
late apoptotic cells (KU812; flow cytometry; concentration not given, 1 h): 2.69% and 3.23% and 2.61%

Cc1ccncc1.[Cl-].[Cl-].[Ru+2].c1cc(-c2ccc3cccnc3n2)nc(-c2ccc3cccnc3n2)c1.c1ccc2cc3nc4c5cccnc5c5ncccc5c4nc3cc2c1
phototherapeutic index (B16-F10; visible light 100 J/cm2; reference: dark EC50 over light EC50): 82

CC1(C)C[C@@H](Nc2cccc(-c3sc(C(=O)O)c(OCC(=O)O)c3Cl)c2)CCN1S(=O)(=O)Cc1cccc(NC(=O)CN2CCC(c3ccc4c(c3)oc(=O)n4C3CCC(=O)NC3=O)CC2)c1 (stereo partly drawn)
pSTAT1 level (B16-F10; HTRF, item: phospho-STAT1 Tyr701; 0.041 µM, with: IFN-γ; reference: min-max normalised): 13.2% and 10.2% and 8.08% and 10.6% and 12.4% and 14.1%

Cc1ncsc1-c1ccc(C(C)NC(=O)C2CC(O)CN2C(=O)C(NC(=O)CCCCCCCCCCN2CCCC(Nc3ncc(Cl)c(Nc4ccccc4S(=O)(=O)C(C)C)n3)C2)C(C)(C)C)cc1 (stereo not drawn)
log2 fold change (22Rv1; RNA-seq, item: RPAP2 mRNA; concentration not given; reference: DMSO): -1.23

CCN(C(=O)c1cc(F)ccc1Oc1nncnc1N1CCC2(C1)CN([C@H](CCCN(C)CCOC)C(C)C)C2)C(C)C
GI50 (SW-620; cell growth or viability; 72 h): > 10000 nM

COc1ccc(NC(=O)c2ccc3[nH]c(-c4ccc(N(C)C)cc4)nc3c2)cn1
dead cell to confluence ratio (HCT116; IncuCyte; concentration not given, 12 h): 78.8 and 26.1 and 126

COC(=O)c1cc(NC2=NC(=O)C(=Cc3ccc(C)cc3)S2)ccc1OC(C)=O
metabolite level (MCF7; GC-MS, item: Tyrosine; 1 µM; reference: DMSO): -0.97 fold change

COC(=O)[C@H](C)NC(=O)[C@H](C)NC(=O)c1csc(-c2cccnc2)n1
EC50 (NCI-H358; cell viability): > 30000 nM

C=CC(=O)N1CC2C(=O)N(CCN(C)C)c3c(c4cc(Cl)c(-c5c(O)cccc5F)nc4n(-c4c(C)ccnc4C(C)C)c3=O)N2CC1C (stereo not drawn)
p-ERK/ERK ratio (NCI-H358; Western blot; 1 nM, 4 h): decreased

CCOc1cncc(-c2ccc(NC(=O)C3(c4ccnc(NS(=O)(=O)C5CC5)n4)CCOCC3)nc2)n1
IC50 (LP-1; cell growth or viability, ATP luminescence; 72 h): 164 nM

CNS(=O)(=O)Nc1nccc(Cc2c(C)c3ccc(Oc4ncccc4F)cc3oc2=O)c1F
IC50 (SK-NEP-1; cell viability; 7 days): > 1000 nM

CC(C)c1ccc(N(C)c2ccc3c(c2)OCC[C@H]3CNc2cnccc2C(=O)O)cc1
IC50 (NCI-H2009; cell growth or viability, ATP luminescence; 7 days): ≥ 10000 nM

CCC(=CCc1c(O)cc2c(c1O)C(=O)CC(c1ccc(O)cc1)O2)CC (stereo not drawn)
late apoptotic cells (HeLa; annexin V/PI; 48 µM, 48 h): 87%

CC(C)(C)c1cc(-c2ccc3cc4ccccc4nc3n2)nc(-c2ccc3cc4ccccc4nc3n2)c1.[Cl-].[Cl-].[Ru+2].c1ccc2cc3nc4c5cccnc5c5ncccc5c4nc3cc2c1
phototoxicity index (B16-F10; resazurin; with: light 733 nm, 100 J/cm2; reference: dark EC50 over light EC50): 1

O=C(C[Se]C(=O)c1cccnc1Nc1cccc(C(F)(F)F)c1)Nc1cccc(C(F)(F)F)c1
mean growth percent (NCI60 breast subpanel; cell growth; 10 µM, 48 h, one-dose): -61.9%

Repeated from above:
CNS(=O)(=O)Nc1nccc(Cc2c(C)c3ccc(Oc4ncccc4F)cc3oc2=O)c1F
IC50 (SK-NEP-1; cell viability; 7 days): > 1000 nM

CC(C)c1ccc(N(C)c2ccc3c(c2)OCC[C@H]3CNc2cnccc2C(=O)O)cc1
IC50 (NCI-H2009; cell growth or viability, ATP luminescence; 7 days): ≥ 10000 nM

CCC(=CCc1c(O)cc2c(c1O)C(=O)CC(c1ccc(O)cc1)O2)CC (stereo not drawn)
late apoptotic cells (HeLa; annexin V/PI; 48 µM, 48 h): 87%
